Measured values pooled from the literature.
Each numbered part is a random draw from the data of one study; scales do not carry over between parts.
Sequence of UniProt O43353 (whole entry, looked up): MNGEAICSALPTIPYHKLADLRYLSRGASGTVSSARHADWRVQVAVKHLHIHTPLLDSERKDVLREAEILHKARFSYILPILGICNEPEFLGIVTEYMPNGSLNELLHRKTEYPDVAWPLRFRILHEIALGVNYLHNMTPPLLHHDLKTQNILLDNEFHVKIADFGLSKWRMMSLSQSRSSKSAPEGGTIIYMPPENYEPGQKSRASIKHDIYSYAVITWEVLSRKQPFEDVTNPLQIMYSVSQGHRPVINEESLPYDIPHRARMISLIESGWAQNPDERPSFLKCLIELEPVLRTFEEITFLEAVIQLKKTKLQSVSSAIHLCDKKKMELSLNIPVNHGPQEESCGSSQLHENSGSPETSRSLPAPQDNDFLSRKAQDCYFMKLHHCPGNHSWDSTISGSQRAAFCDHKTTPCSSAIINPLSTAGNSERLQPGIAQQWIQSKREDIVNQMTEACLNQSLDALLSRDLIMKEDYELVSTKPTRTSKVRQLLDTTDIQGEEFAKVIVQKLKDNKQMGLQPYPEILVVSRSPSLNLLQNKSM
Sequence of UniProt O43683 (whole entry, looked up): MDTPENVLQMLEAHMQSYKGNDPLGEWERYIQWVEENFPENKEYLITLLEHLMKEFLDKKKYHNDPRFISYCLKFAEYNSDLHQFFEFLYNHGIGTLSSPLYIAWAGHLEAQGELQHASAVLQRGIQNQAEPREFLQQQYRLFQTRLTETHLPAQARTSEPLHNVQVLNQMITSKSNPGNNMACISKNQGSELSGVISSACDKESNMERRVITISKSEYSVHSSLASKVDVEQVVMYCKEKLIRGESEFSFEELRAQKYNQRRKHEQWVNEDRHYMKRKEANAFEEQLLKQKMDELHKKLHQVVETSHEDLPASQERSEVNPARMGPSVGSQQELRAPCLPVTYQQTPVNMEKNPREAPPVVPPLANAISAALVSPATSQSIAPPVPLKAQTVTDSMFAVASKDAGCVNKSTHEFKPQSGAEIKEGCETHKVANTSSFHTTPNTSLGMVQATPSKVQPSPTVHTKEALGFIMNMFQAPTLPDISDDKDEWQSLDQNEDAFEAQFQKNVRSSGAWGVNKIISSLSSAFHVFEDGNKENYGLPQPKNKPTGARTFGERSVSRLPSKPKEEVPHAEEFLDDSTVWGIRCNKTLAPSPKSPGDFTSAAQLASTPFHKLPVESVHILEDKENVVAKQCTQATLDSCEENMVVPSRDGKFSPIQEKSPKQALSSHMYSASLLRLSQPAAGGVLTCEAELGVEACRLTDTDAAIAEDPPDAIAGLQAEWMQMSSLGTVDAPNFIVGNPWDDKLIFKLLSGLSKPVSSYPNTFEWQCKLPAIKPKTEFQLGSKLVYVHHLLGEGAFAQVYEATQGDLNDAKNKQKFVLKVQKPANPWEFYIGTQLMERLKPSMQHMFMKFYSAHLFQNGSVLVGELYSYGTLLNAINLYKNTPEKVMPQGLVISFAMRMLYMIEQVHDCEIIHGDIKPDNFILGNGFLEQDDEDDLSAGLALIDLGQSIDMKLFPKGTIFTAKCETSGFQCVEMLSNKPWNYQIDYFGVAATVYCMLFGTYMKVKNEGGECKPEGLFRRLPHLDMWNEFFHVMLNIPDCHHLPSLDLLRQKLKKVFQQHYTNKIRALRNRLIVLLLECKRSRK
Sequence of UniProt Q13523 (whole entry, looked up): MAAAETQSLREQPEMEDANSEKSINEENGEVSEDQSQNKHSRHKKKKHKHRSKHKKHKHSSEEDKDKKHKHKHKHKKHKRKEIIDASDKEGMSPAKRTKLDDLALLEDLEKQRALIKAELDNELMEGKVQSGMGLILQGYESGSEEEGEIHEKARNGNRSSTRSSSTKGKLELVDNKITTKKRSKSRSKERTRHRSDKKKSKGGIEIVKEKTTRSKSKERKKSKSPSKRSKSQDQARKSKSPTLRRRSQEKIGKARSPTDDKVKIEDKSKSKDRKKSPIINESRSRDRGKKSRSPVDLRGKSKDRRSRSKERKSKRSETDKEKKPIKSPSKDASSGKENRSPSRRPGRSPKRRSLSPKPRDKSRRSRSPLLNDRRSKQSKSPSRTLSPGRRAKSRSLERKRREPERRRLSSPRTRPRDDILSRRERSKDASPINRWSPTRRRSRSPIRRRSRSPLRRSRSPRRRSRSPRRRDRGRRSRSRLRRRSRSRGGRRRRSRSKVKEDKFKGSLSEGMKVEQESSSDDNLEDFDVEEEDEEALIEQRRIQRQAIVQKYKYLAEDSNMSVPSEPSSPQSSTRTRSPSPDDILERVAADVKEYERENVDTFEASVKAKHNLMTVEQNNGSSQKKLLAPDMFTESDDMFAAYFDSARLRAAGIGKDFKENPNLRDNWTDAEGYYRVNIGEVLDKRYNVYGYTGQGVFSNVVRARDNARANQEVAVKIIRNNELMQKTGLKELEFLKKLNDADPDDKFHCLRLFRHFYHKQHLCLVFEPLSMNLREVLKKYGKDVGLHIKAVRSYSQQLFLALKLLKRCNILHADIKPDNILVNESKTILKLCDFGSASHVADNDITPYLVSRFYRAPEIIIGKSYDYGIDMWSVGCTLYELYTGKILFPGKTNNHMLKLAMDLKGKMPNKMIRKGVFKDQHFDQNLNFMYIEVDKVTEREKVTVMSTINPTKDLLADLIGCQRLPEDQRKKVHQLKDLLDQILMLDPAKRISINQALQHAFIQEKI
Sequence of UniProt Q12866 (whole entry, looked up): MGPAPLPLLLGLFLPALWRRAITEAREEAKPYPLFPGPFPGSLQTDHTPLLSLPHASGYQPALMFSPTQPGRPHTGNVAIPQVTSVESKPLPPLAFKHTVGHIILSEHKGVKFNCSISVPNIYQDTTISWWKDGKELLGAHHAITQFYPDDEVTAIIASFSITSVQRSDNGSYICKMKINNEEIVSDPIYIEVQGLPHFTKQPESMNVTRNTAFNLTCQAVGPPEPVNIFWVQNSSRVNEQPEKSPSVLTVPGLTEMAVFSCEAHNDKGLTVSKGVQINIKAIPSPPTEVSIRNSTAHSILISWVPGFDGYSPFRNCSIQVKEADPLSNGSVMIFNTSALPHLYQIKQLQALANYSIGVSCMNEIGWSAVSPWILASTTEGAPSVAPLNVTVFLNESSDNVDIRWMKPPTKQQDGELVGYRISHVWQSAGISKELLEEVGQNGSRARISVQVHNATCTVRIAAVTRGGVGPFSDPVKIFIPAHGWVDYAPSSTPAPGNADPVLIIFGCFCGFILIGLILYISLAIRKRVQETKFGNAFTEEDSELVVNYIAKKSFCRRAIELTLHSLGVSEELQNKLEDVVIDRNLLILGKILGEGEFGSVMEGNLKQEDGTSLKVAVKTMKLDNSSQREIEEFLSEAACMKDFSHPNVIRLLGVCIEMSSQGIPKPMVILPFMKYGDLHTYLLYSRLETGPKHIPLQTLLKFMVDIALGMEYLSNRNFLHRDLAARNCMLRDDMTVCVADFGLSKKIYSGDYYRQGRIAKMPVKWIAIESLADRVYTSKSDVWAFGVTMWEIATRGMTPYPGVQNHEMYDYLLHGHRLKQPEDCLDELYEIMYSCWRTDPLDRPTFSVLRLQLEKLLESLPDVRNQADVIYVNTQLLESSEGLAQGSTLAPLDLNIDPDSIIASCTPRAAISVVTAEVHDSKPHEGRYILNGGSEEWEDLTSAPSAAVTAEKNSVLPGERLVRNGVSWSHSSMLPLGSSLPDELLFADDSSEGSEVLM
Sequence of UniProt P35916 (whole entry, looked up): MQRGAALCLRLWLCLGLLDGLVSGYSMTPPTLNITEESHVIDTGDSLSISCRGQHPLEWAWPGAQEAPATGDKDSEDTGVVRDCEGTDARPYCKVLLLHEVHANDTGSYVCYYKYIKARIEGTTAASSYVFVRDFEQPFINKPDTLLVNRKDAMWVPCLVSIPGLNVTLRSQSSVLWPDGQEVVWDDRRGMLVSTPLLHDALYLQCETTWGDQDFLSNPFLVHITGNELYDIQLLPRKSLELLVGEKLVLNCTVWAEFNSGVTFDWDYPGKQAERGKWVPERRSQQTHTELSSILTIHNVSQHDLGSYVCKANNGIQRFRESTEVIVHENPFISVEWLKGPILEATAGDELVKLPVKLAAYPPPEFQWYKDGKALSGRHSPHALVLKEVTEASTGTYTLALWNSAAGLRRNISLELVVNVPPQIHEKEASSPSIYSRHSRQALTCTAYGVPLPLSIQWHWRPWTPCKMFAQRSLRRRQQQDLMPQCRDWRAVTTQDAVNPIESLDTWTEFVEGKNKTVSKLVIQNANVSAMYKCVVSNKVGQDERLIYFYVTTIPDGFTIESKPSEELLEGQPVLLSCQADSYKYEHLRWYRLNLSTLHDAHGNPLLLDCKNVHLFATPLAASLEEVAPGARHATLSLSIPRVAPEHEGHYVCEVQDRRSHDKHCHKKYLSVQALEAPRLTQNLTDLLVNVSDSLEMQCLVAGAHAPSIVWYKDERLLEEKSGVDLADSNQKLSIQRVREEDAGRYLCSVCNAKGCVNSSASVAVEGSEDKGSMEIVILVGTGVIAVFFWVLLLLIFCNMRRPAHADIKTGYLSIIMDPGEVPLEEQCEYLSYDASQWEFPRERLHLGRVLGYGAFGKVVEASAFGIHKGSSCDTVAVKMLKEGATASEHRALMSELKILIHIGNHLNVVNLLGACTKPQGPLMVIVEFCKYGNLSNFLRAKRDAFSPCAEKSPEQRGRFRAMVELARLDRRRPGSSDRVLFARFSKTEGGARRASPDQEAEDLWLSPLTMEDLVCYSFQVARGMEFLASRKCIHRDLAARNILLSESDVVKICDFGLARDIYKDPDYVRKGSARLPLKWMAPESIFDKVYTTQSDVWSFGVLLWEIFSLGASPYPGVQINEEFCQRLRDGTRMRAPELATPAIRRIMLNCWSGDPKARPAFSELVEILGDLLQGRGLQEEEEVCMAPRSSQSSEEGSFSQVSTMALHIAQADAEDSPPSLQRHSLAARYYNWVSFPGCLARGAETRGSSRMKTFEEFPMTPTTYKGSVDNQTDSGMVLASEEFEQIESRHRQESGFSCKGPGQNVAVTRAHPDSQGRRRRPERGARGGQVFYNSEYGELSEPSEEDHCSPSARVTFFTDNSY

Series 1
Target: Interferon regulatory factor 3, full length, phosphomimetic (IRF3, Homo sapiens, UniProt Q14653, residues 1-427, S386D/S396D/S398D/S402D/T404D/S405D)
Method: protein-binding microarray
Form: double-stranded DNA, one strand shown
Medium: in vitro
Tested at: 2540 nM top
Notes: 60-bp whole probe
Added: salmon DNA 0.4 mg/ml
Reference: random background probes
Direction: higher = stronger binding
Constant ends, left off below: GCCTAGCAC … GTCTTGATTCGCTTGACGCTGCTG
Target sequence (chain): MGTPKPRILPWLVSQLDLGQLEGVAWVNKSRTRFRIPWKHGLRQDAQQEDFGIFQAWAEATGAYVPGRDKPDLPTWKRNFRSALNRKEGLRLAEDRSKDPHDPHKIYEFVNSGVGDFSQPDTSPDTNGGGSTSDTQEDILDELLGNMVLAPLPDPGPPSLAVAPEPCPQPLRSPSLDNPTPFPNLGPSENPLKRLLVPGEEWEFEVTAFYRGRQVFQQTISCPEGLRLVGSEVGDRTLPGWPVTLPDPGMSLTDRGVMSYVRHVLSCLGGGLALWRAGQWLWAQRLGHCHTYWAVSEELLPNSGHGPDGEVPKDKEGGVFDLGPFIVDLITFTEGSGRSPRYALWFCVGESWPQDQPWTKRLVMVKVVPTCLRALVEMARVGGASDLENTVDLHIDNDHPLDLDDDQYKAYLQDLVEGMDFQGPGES
Oligonucleotide	fitted relative affinity [z-score]
GACAGTTTCCTACTGCTGACGTGCTAG	5.72
GACGGTATCGGGTATCGGGACGTGCTA	2.12
TTTTGAAGTTTGGCGTTGACGTGCTAG	0.141
GTAGGTTTCGGTATCGGTTAGTGCTAG	8.83
GAAGGACTGGACACTGGGGACGTGCTA	-0.825
CACTTTTCCTACATCAGCTGGTGCTAG	2.45
TCATCTTCACATATAATACTGTGCTAG	1.55
TTTTTTTTTTTTTTACTTCGGTGCTAG	1.65

Series 2
Cell line: A-375
Tested at: 100 µM
Time: 36 h
SMILES	viability
CN[C@@H]1[C@@H](O[C@H]2O[C@H](CO)[C@@H](N)[C@H](O)[C@H]2O)O[C@H]2C[C@@H](N)[C@@H](O[C@H]3[C@H](O)[C@@H](O)[C@H](N)C[C@@H]3N)O[C@@H]2[C@@H]1O	102%
CC(=O)O[C@@]12CO[C@@H]1C[C@H](O)[C@@]1(C)C(=O)[C@H](O)C3=C(C)[C@@H](OC(=O)[C@H](O)[C@@H](NC(=O)OC(C)(C)C)c4ccccc4)C[C@@](O)([C@@H](OC(=O)c4ccccc4)[C@H]21)C3(C)C	24.6%
O=C(Nc1c(Cl)cncc1Cl)c1ccc(OC(F)F)c(OCC2CC2)c1	55.9%

Series 3
SMILES: CSc1cccnc1N1CCN(Cc2nc3ccccc3[nH]2)CC1
Tested at: 1 µM
target	observed	method	notes	reference	remaining binding [%]
PTK2B (Homo sapiens, UniProt Q14289)	cell-free assay	competition with immobilised ligand	–	–	100
ABL1 (Homo sapiens, UniProt P00519, E255K)	–	KINOMEscan	E255K mutant, phosphorylated	control	67
Tyrosine-protein kinase JAK1, JH2 (JAK1, Homo sapiens, UniProt P23458)	cell-free assay	competition with immobilised ligand	–	–	80
CDK7 (Homo sapiens, UniProt P50613)	cell-free assay	competition with immobilised ligand	–	–	61
MERTK (Homo sapiens, UniProt Q12866)	cell-free assay	competition with immobilised ligand	–	–	80
CDK4 (Homo sapiens, UniProt P11802)	cell-free assay	competition with immobilised ligand	–	–	84
MATK (Homo sapiens, UniProt P42679)	cell-free assay	competition with immobilised ligand	–	–	45
BUB1 (Homo sapiens, UniProt O43683)	cell-free assay	competition with immobilised ligand	–	–	90
EPHB3 (Homo sapiens, UniProt P54753)	cell-free assay	competition with immobilised ligand	–	–	93
Tyrosine-protein kinase ABL1, non-phosphorylated (ABL1, Homo sapiens, UniProt P00519, T315I)	cell-free assay	competition with immobilised ligand	–	–	99
FLT3 (Homo sapiens, UniProt P36888, N841I)	cell-free assay	competition with immobilised ligand	–	–	100
CSF1R (Homo sapiens, UniProt P07333)	cell-free assay	competition with immobilised ligand	–	–	100
MAK (Homo sapiens, UniProt P20794)	binding	competition with immobilised ligand	–	–	100
FLT4 (Homo sapiens, UniProt P35916)	cell-free assay	competition with immobilised ligand	–	–	100
CDKL3 (Homo sapiens, UniProt Q8IVW4)	binding	competition with immobilised ligand	–	–	100
PRPF4B (Homo sapiens, UniProt Q13523)	cell-free assay	competition with immobilised ligand	–	–	100
PNCK (Homo sapiens, UniProt Q6P2M8)	cell-free assay	competition with immobilised ligand	–	–	100
RIPK2 (Homo sapiens, UniProt O43353)	cell-free assay	competition with immobilised ligand	–	–	100

Series 4
Target: Protein C-ets-1, full length (ETS1, Homo sapiens, UniProt P14921, residues 1-441)
Method: protein-binding microarray
Form: hairpin DNA
Medium: in vitro
Tested at: not given
Notes: whole hairpin DNA, median over replicate spots
Reference: not given
Direction: higher = stronger binding
Constant ends, left off below: GAGGCCAG … CTGGCCTCACACTC
Residues (chain): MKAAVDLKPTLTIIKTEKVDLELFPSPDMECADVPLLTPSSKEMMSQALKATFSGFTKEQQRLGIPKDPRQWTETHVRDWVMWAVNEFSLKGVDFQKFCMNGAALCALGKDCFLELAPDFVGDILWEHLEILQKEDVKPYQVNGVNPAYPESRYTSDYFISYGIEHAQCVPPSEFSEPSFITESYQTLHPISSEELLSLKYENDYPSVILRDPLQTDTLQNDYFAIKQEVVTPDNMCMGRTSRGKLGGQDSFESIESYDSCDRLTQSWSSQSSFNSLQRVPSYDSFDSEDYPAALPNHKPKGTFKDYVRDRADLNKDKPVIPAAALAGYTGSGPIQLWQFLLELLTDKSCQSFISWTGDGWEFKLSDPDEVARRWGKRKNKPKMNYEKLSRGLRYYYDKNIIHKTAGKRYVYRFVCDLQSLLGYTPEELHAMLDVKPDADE
Oligonucleotide	median fluorescence [a.u.]
TCGCAAGTTGCCTCCTGGCAACTTGCGA (5mC at 12)	524
CAGGAAGTTGCCTCCTGGCAACTTCCTG	5520
TCGCGAGTTGCCTCCTGGCAACTCGCGA (5mC at 32)	557
CGGGAAGTTGCCTCCTGGCAACTTCCCG (5mC at 9 35)	1250
TCGGAAGTCGCCTCCTGGCGACTTCCGA	3700
CCGGAAGCGGCCTCCTGGCCGCTTCCGG (5mC at 16)	6180
CCGAAAGTTGCCTCCTGGCAACTTTCGG	566
CCGCGAGTTGCCTCCTGGCAACTCGCGG (5mC at 32)	552

Repeated from above (series 4):
Oligonucleotide	median fluorescence [a.u.]
TCGCAAGTTGCCTCCTGGCAACTTGCGA (5mC at 12)	524
CAGGAAGTTGCCTCCTGGCAACTTCCTG	5520
TCGCGAGTTGCCTCCTGGCAACTCGCGA (5mC at 32)	557
CGGGAAGTTGCCTCCTGGCAACTTCCCG (5mC at 9 35)	1250
TCGGAAGTCGCCTCCTGGCGACTTCCGA	3700
CCGGAAGCGGCCTCCTGGCCGCTTCCGG (5mC at 16)	6180
